Experimental data pooled from the literature.
A part holds a random share of what one study measured. Changes are numbered by the printed parent chain.

Study 1
Target: Histone acetyltransferase KAT6A, both winged helices, GST fusion (KAT6A, Homo sapiens, UniProt Q92794, residues 1-181)
Method: protein binding microarray
Form: double-stranded DNA, one strand shown
Matrix: in vitro
Tested at: not given
Notes: 8-mer, flanks averaged, mean of 2 arrays, mostly near background
Baseline: not given
Reading: higher = stronger binding
Quantity: E-score
Target sequence (chain): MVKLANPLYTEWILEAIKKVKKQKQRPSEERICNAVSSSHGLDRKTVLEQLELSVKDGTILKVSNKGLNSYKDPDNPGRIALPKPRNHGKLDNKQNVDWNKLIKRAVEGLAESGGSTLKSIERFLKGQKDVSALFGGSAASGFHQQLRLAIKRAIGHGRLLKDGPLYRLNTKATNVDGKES
CGACAACC: 0.0416
ATAAGATG: -0.159
CTCTGTCC: 0.0178
AGCTTAGA: -0.0424
GATTTATA: -0.0229
CGCCACTA: 0.15
AAACTCGC: 0.0983
ATCTGAAA: -0.0521
CGATGACC: 0.193
CAGAACAG: -0.137
GTCCACTA: -0.22
CTGCGGGA: 0.209
AAACATCC: 0.0564
GCTATGAA: -0.0664
CCGTACTA: 0.249
AGATTTAC: -0.127
CCACCCAC: -0.296
GTCAATTA: -0.00624
CTAGCAAA: -0.088
AAGGATCT: -0.131
AACCGATT: 0.086
CCCTTTCC: -0.00346
AGATTTCG: 0.122
CAAACAGG: -0.157
CCGAGACG: 0.15

Study 2
Target: RNA binding protein fox-1 homolog 2, RRM domain, GST-SBP tag (RBFOX2, Homo sapiens, UniProt O43251-10, residues 100-194)
Method: RNA Bind-n-Seq
Form: RNA
Matrix: in vitro
Tested at: 365 nM
Notes: natural RNA segment, single round, ends assumed
Baseline: no-protein control
Reading: higher = stronger binding
Quantity: RBNS enrichment (R)
Shared flanks, not repeated: GGGAGUUCUACAGUCCGACGAUC … UGGAAUUCUCGGGUGCCAA
Target sequence (chain): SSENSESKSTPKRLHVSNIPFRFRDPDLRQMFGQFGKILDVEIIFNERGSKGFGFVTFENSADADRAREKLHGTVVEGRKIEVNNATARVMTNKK
CUGUGCAGGAGGAGGGUUGCUAGUAGGUUCUGCUUCUGCUUCUCUCUGCUCCACUGUCUGCAGCCCAGAUCCUGUUGGGCCUGGCUGGUGUCUGGUAACCAUGGGCCUCC: 0.441
AUUUCAGAUUGAGCACUUCACUAUCAAAAAUACUAACAUCACAUGGCUUGAAGAGUAACCAUCAGAGCUGAAUCAUCCAAGUAAGAACAAGUACCAUUGUUGAUUGAUAA: 0.605
CUUCUACCCUAGUUUCCCAUCCUCUCUCUGUGGAGGCCAAACCAACUCUUUGCCAGCAGCCACAACAUGCAUUGACAGCGGCACAGUGAGAUAUAACUGAUGGGCUUUGA: 0.504
UUGUGUGUGUGGUUCAAGUGUGCACUGGGAGGCAACUGAGGUCUGAAGCCAACCAUAUGCUCCUGCCUUGCCGAUAGGUUUUAUUAUUUUUUUUAAAUUAAUGAAAAUAU: 0.356
CUUAUGUGACAUUUUGCCUUAAGAAUAUAAAAGUGCUUUAGCACUGAUGGCUGGCAUUUUUAAUAUAGGCAGUGAAAGUGACUUUAGAAGCAUGGGAUGAAAUAGAGGGA: 0.793
UCUGAAUUUAACAAAUGCUUAGUCUCAGCAGCCUCCGGGGGAAAAAAGCUUAGCCUAGCAGUCAGUGACUUACUUGCACUUUUUGCACAUAGAUAUAAAGUAAAAUUAUG: 0.662
AAAACAGCUGUAUUUUAUGUAUGCUUUACUGAUAAGUGUGCCAAUAAUAAACUGUGUUAAUGACCAAGCAAGUGAAUCUGGCUAUUUGUGUGAGUACGUGUGUAGCAAUC: 2.28
AUUGUAUGCAUAUAUGUGUAUAUGUUAUAAACGUGAAAUAUAUUUGACACACACAUUCACAUAUAAAUUGUUAAAAACUGAAGGCAGAAUGGAACUAAUAUAUGUAACAG: 1.07
GUCAAGGCCAGCCUCGGUGAUGGCCUGAUCCCAGGUACAAGGCCUUGUGAACUGAGUUUGAAACAUGCCUGCUUUGGAGAGACUGGGGCAGUGAACACCCCAGCAGCCUU: 1
AUAAUGGAGUAGCUGUUGCCCUUCUCCGGUUGUGUGUACAGUAUGUGUGGAAUAAAAAAGGGAAACUGUUUUCACAAGCUGUUCUUUGUUUCAUAAUUGGAUUCAUCAAU: 0.457
AUCCUCCUGUCUAAUUUGCACCUUUGUCUGGAUGCACACUUCUGACCUUGCUGCCACAACCUGUGGGGUCUGAUGUGUCCCUUGAUGGGUGCUGCCCUCAGGGACUGCAC: 0.221
CCUCUCUGUUACUUUUGGCCUAUGUUGUUAGAAAUAAGAUGCUAUCUUGCAUAGUUAGAAUUAAGCGUUUGUCCAUCUCUAGAUAACAUUGAAAAGUUUGAGUGUUACAG: 0.376

Study 3
Target: Ras GTPase-activating protein-binding protein 1, full length (G3BP1, Homo sapiens, UniProt Q13283)
Sequence of UniProt Q13283 (whole entry, looked up): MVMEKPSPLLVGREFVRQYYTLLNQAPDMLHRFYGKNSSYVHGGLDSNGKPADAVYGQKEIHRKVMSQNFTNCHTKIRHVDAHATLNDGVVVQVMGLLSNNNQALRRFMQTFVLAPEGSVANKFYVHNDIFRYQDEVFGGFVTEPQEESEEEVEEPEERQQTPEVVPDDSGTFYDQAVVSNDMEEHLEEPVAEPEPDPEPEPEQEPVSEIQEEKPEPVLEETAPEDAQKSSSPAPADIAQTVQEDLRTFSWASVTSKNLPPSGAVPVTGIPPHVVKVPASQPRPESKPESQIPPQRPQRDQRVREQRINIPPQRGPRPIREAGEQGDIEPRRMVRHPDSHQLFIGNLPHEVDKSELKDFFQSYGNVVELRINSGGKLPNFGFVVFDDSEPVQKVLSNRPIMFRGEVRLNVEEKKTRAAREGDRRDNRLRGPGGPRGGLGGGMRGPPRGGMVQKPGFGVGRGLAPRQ
Method: RNA Bind-n-Seq
Form: RNA
Matrix: in vitro
Tested at: 200 nM
Notes: whole 134-nt RNA, ends assumed
With: 150 mM KCl
Baseline: input library
Reading: higher = stronger binding
Quantity: log2 enrichment
Shared flanks, not repeated: GGGAGUUCUACAGUCCGACGAUC … UGGAAUUCUCGGGUGUCAAGG
UCCUGUGCUACACAUCGUAUGUACCGAAUCGGGAAAAAGGGUUUUUUUGGGUUUUUGGGAAAGUAUUAUGUUACGCCGUUCGGAUCUGCA: -0.62
UCAAGUCCUGUGCUACACAUCGUAUGUACCGAAUCGGGGCCGGGGCCGGCCGGGAAAGUAUUAUGUUACGCCGUUCGGAUCUGCACUUCC: -0.352
UCCUGUGCUACACAUCGUAUGUACCGAAUCGGUUUUUUGGUUUUUUGGGUUUUUUGGGGAAAGUAUUAUGUUACGCCGUUCGGAUCUGCA: -0.803
AGUCCUGUGCUACACAUCGUAUGUACCGAAUCGGGUUUUUGGUUUUUGGUUUUUGGGGAAAGUAUUAUGUUACGCCGUUCGGAUCUGCAC: -1.16
UCAAGUCCUGUGCUACACAUCGUAUGUACCGAAUCGGGGAAAGGAAAGGGAAAGGAAAGUAUUAUGUUACGCCGUUCGGAUCUGCACUUC: -0.625
UGGCCCUGGUGGCAUGCGGGGAGGAAGAGGUGGCCUCAUGGAUCGUGGCGGUCCCGGUGGAAUGUUCAGAGGUGGCCGUGGUGGAGACAG: 0.0987
AAGUCCUGUGCUACACAUCGUAUGUACCGAAUCGGGGCCCGGGGCCCGGGGCCCGGGAAAGUAUUAUGUUACGCCGUUCGGAUCUGCACU: -1.27
ACCAUGCAGGUGGGCCUCUUUGGGAAGUGGGGCAAGGGGGGGAUAGGGAGGGGGGUAACACUUUGGGAACAGGUGGUCCCAGGUCGUUUC: 1.12
CCUGUGCUACACAUCGUAUGUACCGAAUCGGGGAGGGGAAAAAAAGGGGUUUUUUUGGGGAAAGUAUUAUGUUACGCCGUUCGGAUCUGC: 0.202
CAAGUCCUGUGCUACACAUCGUAUGUACCGAAUCGGGGCCCGGGCCCGGGCCCGGGAAAGUAUUAUGUUACGCCGUUCGGAUCUGCACUU: -1.32
CUCAAGUCCUGUGCUACACAUCGUAUGUACCGAAUCGGGAAAGGGUGGGAGGGAAAGUAUUAUGUUACGCCGUUCGGAUCUGCACUUCCA: 1.28
AAGUCCUGUGCUACACAUCGUAUGUACCGAAUCGGGUUUUGGUUUUGGGGUUUUGGGAAAGUAUUAUGUUACGCCGUUCGGAUCUGCACU: -0.626
UGGCCCUGGUGGCAUGCGGGGAGGAAGAAGUGGCCUCAUGGAUCGUGGUGGUCCCGGUGGAAUGUUCAGAGGUGGCCGUGGUGGAGACAG: 0.328
CAAGUCCUGUGCUACACAUCGUAUGUACCGAAUCGGAAAAGGAAAAGGGAAAAGGAAAGUAUUAUGUUACGCCGUUCGGAUCUGCACUUC: -0.888

Study 4
Target: RING finger protein unkempt homolog, zinc fingers 1-6, GST-SBP tag (UNK, Homo sapiens, UniProt Q9C0B0, residues 30-357)
Method: RNA Bind-n-Seq
Form: RNA
Matrix: in vitro
Tested at: not given
Notes: RNA with constant flanks, human-mouse chimeric sites, ends assumed
Baseline: input RNA pool
Reading: higher = stronger binding
Quantity: bound/input enrichment
Shared flanks, not repeated: GGGAGUUCUACAGUCCGACGAUC … CAACAGAGGAUUGAGCAUCA
Target sequence (chain): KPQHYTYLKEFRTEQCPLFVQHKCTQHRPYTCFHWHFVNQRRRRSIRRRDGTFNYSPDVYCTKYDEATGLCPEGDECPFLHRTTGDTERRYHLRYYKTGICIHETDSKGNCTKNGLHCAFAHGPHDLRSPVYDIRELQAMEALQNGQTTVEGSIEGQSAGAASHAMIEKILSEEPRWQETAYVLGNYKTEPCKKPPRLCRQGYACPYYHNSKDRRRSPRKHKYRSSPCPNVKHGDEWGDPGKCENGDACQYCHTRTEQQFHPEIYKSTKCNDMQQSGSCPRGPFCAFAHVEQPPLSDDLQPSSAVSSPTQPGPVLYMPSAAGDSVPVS
UCAGGAACCCAGACAAACAUGAAUGUAAAUGAAGUCAUUAGCAAUAGAGCAAUUGAAAUGUUAGGAGGUGAACUUGGCAGCAAGAAGCCUGUGCAUCCCAAUGAUCAUGUUAACAAAAGC: 0.695 ratio
CUAAUCCCCUUCGUUGCUCCCCCACUUCUCAUGGUAAUAACAAAGUCUUAUAUCCCCGUCCUAGCUUUCACUCAGAUGGCUUAUGGAGCCGGUUUCCUAGCUUUCUUGGGAGGGAUCAGA: 0.196 ratio
GAAUCCUACUCAGGCGGAUUUUGCAACACCAAGCUCACAGCAGCAGCAUCUUAGUCACAGUUAGGUAGUUUUGGGGCUCUGUGGCCAGGGUUUUAUUCACAUGCAGGUUUGGAAAAUGUA: 3.17 ratio
AAUUUCCUGUCAUACUUUUUAGACAUUCACAUCAGACUUACAGAGCACCUGGCCACAUUCUAGUUUUGUGUUAUUUCUCAGCUAUGGAUAUGAUCAAAGAGUGAAAAUGCUUAACUAAUG: 0.461 ratio
UAUAAUAAUCAUGAAAUUCGUUCCGGGAAACAUAUUGGUGUCUGCAUCUCAGUUGCCAACAAUAGGCUUUUUGUGGGCUCGAUUCCUAAGAGUAAAACCAAGGAGCAGAUUCUUGAAGAA: 2.57 ratio
GAGUCGAGCAAACUUGAAACAAUUCGUUAUCUUGCAGAGCUUCGGUGCACUUGCUUGGCGAUAGCAUAUUGGGAUUUUAGGUUCUGGAAGGAGAACUGACGAUGAUGCUGCCGCUGCUGC: 0.953 ratio
GUAGCUGGGACUACAGAAAUGCUGGUAAUUUCAGUCAGUGAGUCGUGACUUCUGAUGUCCCAGCAAAUGUUGGCAUUGUUGACUGCUGAGAAGAUACACUCGCAAGGCCACGUCUAAGGU: 0.0535 ratio
UGUGAACUGUCUCUUGAGAUCUAAAAAAAACAUGAUUUUUCCUGGCACAUAUUCCAAAGCAAAGACUUUGUUACCUGCUGCUUAUUGUCUAAUUUACAGGGAUAUUUAAUUUUGUCAGGU: 0.186 ratio
CAGGGCAUCAUCUCUCGUGCUGUUAGACACCUUUUUAAGAGUAUUGAAGAAAAAAAAACCUCAGCGAUUAAAAACGGGCUGCCCCCUCCUGAAUUCAAAGUGAAUGCCCAGUUCCUAGAG: 0.576 ratio
UGGCGCCUCCCAUUUUUACUCGUGUUUUUAAGUGUAUUUUUAUAAGAUACAUGUAUUUACAAUUGAGUUUUUGAUUAAUAAUGCUGAAAUGCUACUGGAGAUUAUGAAAAAUGUUUCAAU: 0.193 ratio
UUACCCGAGAACGAGGAUGAGCUGGAGAGCACCAAUAGGCGCUACACCAAGAGGGACUGUAGCACUUUCCUCAGAACUAGUGAGACGGGCAUCGUGGACCAGGUCAUGGUCACUCUCAAC: 0.621 ratio

Study 5
Target: CCNB1, cyclin fold, Cln2 fusion (human)
Method: yeast growth competition, sequencing
Matrix: yeast
Notes: weak parent motif
Baseline: not given
Reading: higher = stronger binding
Quantity: normalised enrichment score
Parent: ORC1 docking peptide (human); PRARKRLELGNLG
G10H: -0.302
K5H: 0.111
K5C: 0.375
L7C: 0.517
L12E: 1.02
K5Y: 0.206
P1H: 0.0477
K5R: 0.349
R2S: 0.298
G13Y: 0.589
G10D: 1.31
A3D: 0.642
R6A: -0.087
P1Q: 0.711
R2Q: 0.211
A3R: 0.57
G10W: 1.38
R2G: 0.0419
G13C: 1.01
R6F: 0.919
L9I: 1.09
A3E: 0.759
L7V: -0.0994
P1M: -0.519
N11S: 0.463

A few entries again (study 3):
AGUCCUGUGCUACACAUCGUAUGUACCGAAUCGGGUUUUUGGUUUUUGGUUUUUGGGGAAAGUAUUAUGUUACGCCGUUCGGAUCUGCAC: -1.16
UCAAGUCCUGUGCUACACAUCGUAUGUACCGAAUCGGGGAAAGGAAAGGGAAAGGAAAGUAUUAUGUUACGCCGUUCGGAUCUGCACUUC: -0.625
UGGCCCUGGUGGCAUGCGGGGAGGAAGAGGUGGCCUCAUGGAUCGUGGCGGUCCCGGUGGAAUGUUCAGAGGUGGCCGUGGUGGAGACAG: 0.0987
AAGUCCUGUGCUACACAUCGUAUGUACCGAAUCGGGGCCCGGGGCCCGGGGCCCGGGAAAGUAUUAUGUUACGCCGUUCGGAUCUGCACU: -1.27
ACCAUGCAGGUGGGCCUCUUUGGGAAGUGGGGCAAGGGGGGGAUAGGGAGGGGGGUAACACUUUGGGAACAGGUGGUCCCAGGUCGUUUC: 1.12
CCUGUGCUACACAUCGUAUGUACCGAAUCGGGGAGGGGAAAAAAAGGGGUUUUUUUGGGGAAAGUAUUAUGUUACGCCGUUCGGAUCUGC: 0.202
